Experimental data from different studies.
Lines come from different studies, so protocols differ.
Cell line: SK-OV-3

C=CC(=O)N1CCC(Cc2cccc(C(=O)N3CCN(c4nc(-c5cnc(N)nc5C(F)F)nc(N5CCOCC5)n4)CC3)c2)CC1 — IC50 (Akt phosphorylation, inhibitor, in-cell western, refers to: Akt pSer473; 1 h): 0.041 µM
N.N.O=C([O-])C1(C(=O)[O-])CCC1.[Pt+2] — decrease of cell viability (platinum resistant; 56.6 µM, 72 h): ~40%
CCCCCCCC(=O)NCCCC[C@H](N)C(=O)NCCCNCCCCNCCCN — EC50 (cell growth; 6 days, added: DFMO 5.0 mM, spermidine 0.5 µM, aminoguanidine 1.0 mM): 30 µM
C=CCc1ccc(OCc2nnc(SCC(=O)Nc3cccc(C)c3)o2)c(OC)c1 — IC50 (cell growth or viability, MTT; 72 h): 65.4 µM
CCC(=O)N1CCC(COCC(=O)N2CCN(c3nc(-c4cnc(N)nc4C(F)F)nc(N4CCOC[C@@H]4C)n3)CC2)CC1 — IC50 (Akt phosphorylation, inhibitor, in-cell western, refers to: Akt pSer473; 1 h): 0.048 µM
C=CCc1ccc(OCc2nnc(SCC(=O)N3CCCCC3)o2)c(OC)c1 — IC50 (cell growth or viability, MTT; 72 h): 181 µM
CC(=O)c1c(C)c2cnc(Nc3ccc(N4CCNCC4)cn3)nc2n(C2CCCC2)c1=O — IC50 (cell growth or viability; 6 days): 1.98 µM
CC1(C)CC(C)(C)c2cc(N/C(S)=N/c3ccc([N+](=O)[O-])cc3)ccc2S1 — EC50 (refers to: cyclin D1; 24 h; decrease): 4 to 5 µM

Some of these lines once more:
CCCCCCCC(=O)NCCCC[C@H](N)C(=O)NCCCNCCCCNCCCN — EC50 (cell growth; 6 days, added: DFMO 5.0 mM, spermidine 0.5 µM, aminoguanidine 1.0 mM): 30 µM
